Assay results from different studies.
Protocols differ between the studies behind these lines. Several values in a cell are separate wells, animals, samples, runs or records.
Observed: DPPH scavenging

The IC50 of `Cc1nnc2c3c(-c4ccc5ccccc5n4)cc(-c4ccccc4)nc3n3c(C)nnc3n12` is reported as 120 µM (absorbance; 30 min).
`Sc1nnc(-c2ccccc2Cl)o1` has an IC50 of 74.1 µM.
`CCCCn1cc(C(=O)O)c(=O)c2cc(F)c(Nc3cccc(OC)c3)c([N+](=O)[O-])c21` has an IC50 of 4090 µM (absorbance; 30 min).
For `COc1ccc(C2NC(=O)NC(C)=C2C(C)=O)cc1` (stereo not shown), the IC50 was 53.1 µM.
`Cc1cc2nc(-c3ccco3)[nH]c2cc1C` has an IC50 of 1.5 µM (absorbance).
`O=C(O[C@@H]1Cc2c(O)cc(O)cc2O[C@@H]1c1cc(O)c(O)c(O)c1)c1cc(O)c(O)c(O)c1` gave an IC50 of 7.1 µM (absorbance; 1 h).
With `C[C@@H]1O[C@@H](OC(=O)/C=C/c2ccc(O)c(O)c2)[C@H](OC(=O)/C=C/c2ccc(O)c(O)c2)[C@H](O)[C@H]1O` the IC50 was 18.2 µg/mL (30 min).
The IC50 of `Cc1ccc(-c2nc3ccccc3[nH]2)o1` is reported as 1.43 µM (absorbance).
`CC(=O)C1=C(C)NC(=O)NC1c1ccccc1` (stereo not shown) has an IC50 of 234 µM.
For `Fc1ccc2[nH]c(-c3ccco3)nc2c1`, the IC50 was 1.4 µM (absorbance).
With `COc1ccc(NCc2cc(=O)c(O)c[nH]2)cc1` the IC50 was 21.4 µg/mL (absorbance; 30 min).
With `N#C/C(=C\c1cn(-c2ccccc2)nc1-c1ccc(F)cc1)c1nc2ccccc2[nH]1` the IC50 was 284 µM (absorbance).
The IC50 of `COc1cc(O)c2c(=O)c(O[C@@H]3O[C@H](CO)[C@@H](O)[C@H](O)[C@H]3O[C@@H]3O[C@H](CO)[C@@H](O)[C@H](O)[C@H]3O)c(-c3ccc(O)cc3)oc2c1` is reported as 468 µM (absorbance).
The IC50 of `COc1cc(CN2CCN(c3ccccc3Cl)CC2)c2cc3[n+](cc2c1O)CCc1cc2c(cc1-3)OCO2` is reported as 16.9 µg/mL (absorbance; 30 min).
`O=C(O)/C=C/c1ccc(O)cc1` has an IC50 of 69 µg/mL.
With `C=C1CC(OC(=O)C(C)(O)CCl)C2C(=C)C(=O)OC2C2C1CC(O)C2(O)CCl` (stereo not shown) the IC50 was roughly 121 µg/mL (absorbance).
With `COc1ccc(-c2nn(-c3ccccc3)cc2/C=C(\C#N)c2nc3ccccc3[nH]2)cc1` the IC50 was 122 µM (absorbance).
The IC50 of `CCCCn1cc(C(=O)O)c(=O)c2cc(F)c3c(nnn3-c3cccc(OC)c3)c21` is reported as 1720 µM (absorbance; 30 min).
`N#C/C(=C\c1cn(-c2ccccc2)nc1-c1ccc(Cl)cc1)c1nc2ccccc2[nH]1` has an IC50 of 82.4 µM (absorbance).
`Cc1ccc(N(O)/N=N/c2ccc(S(=O)(=O)Nc3nccs3)cc2)cc1` has an IC50 of 859 µg/mL and 858 µg/mL.
With `CCCCSc1nnc(-c2ccccc2)o1` the IC50 was 62.1 µM.
With `CC(=O)C1=C(C)NC(=O)NC1c1ccc(F)cc1` (stereo not shown) the IC50 was 49.4 µM.
For `CCCCn1cc(C(=O)O)c(=O)c2cc(F)c(Nc3ccc(OC)cc3)c(N)c21`, the IC50 was 277 µM (absorbance; 30 min).
The IC50 of `CCCCSc1nnc(-c2cc([N+](=O)[O-])ccc2Cl)o1` is reported as 44.6 µM.
`CCCCn1cc(C(=O)O)c(=O)c2cc(F)c3c(nnn3-c3ccc(OC)cc3)c21` has an IC50 of 193 µM (absorbance; 30 min).
The IC50 of `COc1cc(CN2CCN(c3ccc(C)cc3)CC2)c2cc3[n+](cc2c1O)CCc1cc2c(cc1-3)OCO2` is reported as 19.3 µg/mL (absorbance; 30 min).
`CCCCSc1nnc(-c2ccc(N)cc2)o1` has an IC50 of 30.7 µM.
`CC(=O)C1=C(C)NC(=O)NC1c1ccc([N+](=O)[O-])cc1` (stereo not shown) gave an IC50 of 136 µM.
